# Results of several laboratories.
# Parts stem from different laboratories: compare values within a part only. Substitutions count along the parent as printed.
# Chain of UniProt Q9NQU5 (whole entry, looked up): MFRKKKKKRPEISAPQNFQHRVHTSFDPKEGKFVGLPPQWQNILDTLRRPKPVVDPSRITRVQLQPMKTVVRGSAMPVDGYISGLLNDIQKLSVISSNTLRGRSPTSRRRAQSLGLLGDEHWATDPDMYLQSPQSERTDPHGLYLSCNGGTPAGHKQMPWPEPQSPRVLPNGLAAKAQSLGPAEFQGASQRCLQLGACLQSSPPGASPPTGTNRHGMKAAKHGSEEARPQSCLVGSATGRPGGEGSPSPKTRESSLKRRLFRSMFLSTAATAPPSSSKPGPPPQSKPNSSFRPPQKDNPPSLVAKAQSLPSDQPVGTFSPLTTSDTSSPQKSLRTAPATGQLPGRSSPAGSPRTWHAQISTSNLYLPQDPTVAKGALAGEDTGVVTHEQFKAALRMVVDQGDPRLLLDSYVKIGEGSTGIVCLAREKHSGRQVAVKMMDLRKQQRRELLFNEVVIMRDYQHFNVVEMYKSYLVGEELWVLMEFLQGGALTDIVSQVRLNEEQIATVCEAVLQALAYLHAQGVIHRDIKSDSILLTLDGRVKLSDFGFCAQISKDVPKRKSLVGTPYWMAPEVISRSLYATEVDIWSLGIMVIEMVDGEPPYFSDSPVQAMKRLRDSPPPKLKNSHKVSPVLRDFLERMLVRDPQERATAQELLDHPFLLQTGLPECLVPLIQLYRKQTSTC
# Chain of UniProt P17948 (whole entry, looked up): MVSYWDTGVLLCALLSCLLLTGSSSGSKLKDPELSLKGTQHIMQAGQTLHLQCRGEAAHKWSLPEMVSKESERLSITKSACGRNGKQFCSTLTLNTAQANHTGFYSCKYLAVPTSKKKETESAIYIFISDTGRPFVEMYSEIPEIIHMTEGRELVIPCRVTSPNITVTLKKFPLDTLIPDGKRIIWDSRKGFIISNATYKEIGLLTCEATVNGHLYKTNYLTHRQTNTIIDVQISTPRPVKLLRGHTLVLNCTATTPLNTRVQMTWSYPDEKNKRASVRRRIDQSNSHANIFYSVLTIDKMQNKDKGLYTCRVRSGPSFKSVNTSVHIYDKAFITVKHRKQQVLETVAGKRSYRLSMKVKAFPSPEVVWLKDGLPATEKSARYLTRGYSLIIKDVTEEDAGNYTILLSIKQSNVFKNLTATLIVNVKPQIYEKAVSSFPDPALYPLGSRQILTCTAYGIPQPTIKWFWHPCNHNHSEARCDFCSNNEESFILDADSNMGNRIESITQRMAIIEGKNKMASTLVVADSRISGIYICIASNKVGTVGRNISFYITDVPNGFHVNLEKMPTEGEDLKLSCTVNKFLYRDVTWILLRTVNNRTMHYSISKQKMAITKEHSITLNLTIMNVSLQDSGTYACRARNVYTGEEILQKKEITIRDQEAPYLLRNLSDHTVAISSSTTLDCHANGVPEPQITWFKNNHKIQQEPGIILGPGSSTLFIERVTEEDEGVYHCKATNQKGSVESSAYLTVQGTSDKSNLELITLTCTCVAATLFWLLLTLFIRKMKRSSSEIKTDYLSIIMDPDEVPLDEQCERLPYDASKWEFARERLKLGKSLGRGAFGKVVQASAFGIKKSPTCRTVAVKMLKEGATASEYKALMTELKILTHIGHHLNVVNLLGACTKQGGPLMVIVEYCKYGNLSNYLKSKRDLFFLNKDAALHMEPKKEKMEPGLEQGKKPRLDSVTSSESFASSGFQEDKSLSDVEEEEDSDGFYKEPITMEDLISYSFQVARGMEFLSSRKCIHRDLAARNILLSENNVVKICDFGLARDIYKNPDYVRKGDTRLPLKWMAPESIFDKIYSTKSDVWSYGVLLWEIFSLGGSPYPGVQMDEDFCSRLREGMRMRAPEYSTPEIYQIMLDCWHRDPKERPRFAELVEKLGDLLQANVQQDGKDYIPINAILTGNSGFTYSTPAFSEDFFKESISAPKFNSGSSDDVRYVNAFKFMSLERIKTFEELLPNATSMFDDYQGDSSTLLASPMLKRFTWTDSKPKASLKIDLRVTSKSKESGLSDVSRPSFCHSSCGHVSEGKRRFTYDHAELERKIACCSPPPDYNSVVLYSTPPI
# Chain of UniProt Q9H0K1 (whole entry, looked up): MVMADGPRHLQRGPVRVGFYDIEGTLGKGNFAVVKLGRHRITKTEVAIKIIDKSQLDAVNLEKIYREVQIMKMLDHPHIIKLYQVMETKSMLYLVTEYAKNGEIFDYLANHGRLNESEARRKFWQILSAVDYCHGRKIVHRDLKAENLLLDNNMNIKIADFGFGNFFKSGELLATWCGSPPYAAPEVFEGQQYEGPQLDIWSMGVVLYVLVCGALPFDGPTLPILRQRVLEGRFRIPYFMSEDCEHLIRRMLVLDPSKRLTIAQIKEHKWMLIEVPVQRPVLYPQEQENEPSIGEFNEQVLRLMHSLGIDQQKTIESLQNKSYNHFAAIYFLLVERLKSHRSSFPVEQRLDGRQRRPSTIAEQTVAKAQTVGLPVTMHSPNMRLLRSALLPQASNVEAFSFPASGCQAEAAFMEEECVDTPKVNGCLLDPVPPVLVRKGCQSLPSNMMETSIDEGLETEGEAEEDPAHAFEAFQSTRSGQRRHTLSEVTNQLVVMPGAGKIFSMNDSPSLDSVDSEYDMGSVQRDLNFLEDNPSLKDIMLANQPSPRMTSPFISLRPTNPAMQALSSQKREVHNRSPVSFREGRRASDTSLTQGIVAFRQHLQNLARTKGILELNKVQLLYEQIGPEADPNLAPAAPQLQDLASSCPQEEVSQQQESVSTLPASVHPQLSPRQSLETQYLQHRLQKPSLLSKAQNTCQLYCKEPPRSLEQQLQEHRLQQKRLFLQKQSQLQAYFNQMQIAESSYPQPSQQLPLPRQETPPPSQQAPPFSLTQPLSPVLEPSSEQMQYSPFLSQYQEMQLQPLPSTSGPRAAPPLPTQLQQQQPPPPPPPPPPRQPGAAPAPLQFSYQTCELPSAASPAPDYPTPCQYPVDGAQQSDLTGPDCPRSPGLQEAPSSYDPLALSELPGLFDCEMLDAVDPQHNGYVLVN
# Chain of UniProt Q9P286 (whole entry, looked up): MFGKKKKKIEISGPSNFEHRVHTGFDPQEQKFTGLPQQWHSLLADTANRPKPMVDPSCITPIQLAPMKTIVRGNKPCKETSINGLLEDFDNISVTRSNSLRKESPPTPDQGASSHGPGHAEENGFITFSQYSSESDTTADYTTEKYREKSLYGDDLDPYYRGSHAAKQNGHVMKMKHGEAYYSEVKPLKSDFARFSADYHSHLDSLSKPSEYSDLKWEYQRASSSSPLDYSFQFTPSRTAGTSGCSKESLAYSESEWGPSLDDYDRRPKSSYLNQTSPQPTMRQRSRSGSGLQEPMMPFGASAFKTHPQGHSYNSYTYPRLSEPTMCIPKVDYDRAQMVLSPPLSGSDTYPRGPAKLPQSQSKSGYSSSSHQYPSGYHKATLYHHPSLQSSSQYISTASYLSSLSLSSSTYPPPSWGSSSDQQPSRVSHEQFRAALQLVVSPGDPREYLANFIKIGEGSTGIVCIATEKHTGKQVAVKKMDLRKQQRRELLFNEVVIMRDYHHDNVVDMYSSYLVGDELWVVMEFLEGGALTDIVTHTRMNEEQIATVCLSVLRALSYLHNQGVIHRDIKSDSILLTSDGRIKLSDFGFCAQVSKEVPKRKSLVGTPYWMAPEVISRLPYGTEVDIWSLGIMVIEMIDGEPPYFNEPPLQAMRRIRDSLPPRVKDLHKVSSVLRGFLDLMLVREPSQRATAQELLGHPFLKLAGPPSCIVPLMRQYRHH
# Chain of UniProt P49760 (whole entry, looked up): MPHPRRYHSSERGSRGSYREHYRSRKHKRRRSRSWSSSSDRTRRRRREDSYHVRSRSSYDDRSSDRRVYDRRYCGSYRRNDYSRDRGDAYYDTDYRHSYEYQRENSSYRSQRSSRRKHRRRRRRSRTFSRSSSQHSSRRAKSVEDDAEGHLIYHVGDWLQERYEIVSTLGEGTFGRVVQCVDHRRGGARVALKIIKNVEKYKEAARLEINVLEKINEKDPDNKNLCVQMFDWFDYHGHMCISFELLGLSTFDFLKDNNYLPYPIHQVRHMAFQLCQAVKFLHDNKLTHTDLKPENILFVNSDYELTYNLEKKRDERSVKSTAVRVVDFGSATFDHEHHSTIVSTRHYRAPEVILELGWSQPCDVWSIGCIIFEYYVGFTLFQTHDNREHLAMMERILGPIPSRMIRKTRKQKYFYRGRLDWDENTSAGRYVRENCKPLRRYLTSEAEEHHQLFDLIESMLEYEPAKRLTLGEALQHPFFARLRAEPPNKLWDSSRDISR
# Chain of UniProt O96013 (whole entry, looked up): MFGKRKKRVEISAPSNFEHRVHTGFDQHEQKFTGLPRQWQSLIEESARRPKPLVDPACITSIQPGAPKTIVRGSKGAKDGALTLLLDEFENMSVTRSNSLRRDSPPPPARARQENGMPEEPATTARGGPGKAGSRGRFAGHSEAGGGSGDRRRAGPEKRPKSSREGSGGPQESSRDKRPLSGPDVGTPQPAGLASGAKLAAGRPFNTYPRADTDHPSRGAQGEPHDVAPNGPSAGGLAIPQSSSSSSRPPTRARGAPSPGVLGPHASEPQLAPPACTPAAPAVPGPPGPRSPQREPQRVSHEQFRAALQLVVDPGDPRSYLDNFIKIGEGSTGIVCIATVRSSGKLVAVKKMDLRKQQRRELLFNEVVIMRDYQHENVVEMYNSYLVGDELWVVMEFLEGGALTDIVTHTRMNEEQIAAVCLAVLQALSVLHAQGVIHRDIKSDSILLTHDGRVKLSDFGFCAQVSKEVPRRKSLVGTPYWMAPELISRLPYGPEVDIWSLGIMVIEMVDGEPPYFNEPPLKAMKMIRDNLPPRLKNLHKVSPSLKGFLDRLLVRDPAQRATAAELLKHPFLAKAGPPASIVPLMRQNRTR
# Chain of UniProt Q9HC98 (whole entry, looked up): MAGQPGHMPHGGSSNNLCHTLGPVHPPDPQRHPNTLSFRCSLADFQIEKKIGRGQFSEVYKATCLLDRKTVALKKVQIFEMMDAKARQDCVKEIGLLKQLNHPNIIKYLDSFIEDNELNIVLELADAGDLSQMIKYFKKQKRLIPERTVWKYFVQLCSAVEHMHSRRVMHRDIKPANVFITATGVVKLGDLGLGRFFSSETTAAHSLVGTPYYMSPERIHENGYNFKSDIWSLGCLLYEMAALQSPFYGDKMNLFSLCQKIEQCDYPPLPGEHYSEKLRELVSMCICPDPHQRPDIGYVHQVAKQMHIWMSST

# Series 1
# Structure (SMILES): O=C1NC(c2ccccn2)Sc2ccccc21 (centres unmarked)
# Concentration: 1 µM
target,effect on,method,remaining binding [%]
"TEC (Homo sapiens, UniProt P42680)",cell-free assay,competition with immobilised ligand,75
"NEK6 (Homo sapiens, UniProt Q9HC98)",cell-free assay,competition with immobilised ligand,84
"SIK1 (Homo sapiens, UniProt P57059)",,competition binding,88

# Series 2
# Target: CCND2, cyclin fold, Cln2 fusion (human)
# Method: yeast growth competition, sequencing
# Matrix: yeast
# Notes: strong parent motif
# Baseline: not given
# Direction: higher = stronger binding
# Starting sequence: PKN2 docking peptide (human); VSAVRKLDFSDTM; partner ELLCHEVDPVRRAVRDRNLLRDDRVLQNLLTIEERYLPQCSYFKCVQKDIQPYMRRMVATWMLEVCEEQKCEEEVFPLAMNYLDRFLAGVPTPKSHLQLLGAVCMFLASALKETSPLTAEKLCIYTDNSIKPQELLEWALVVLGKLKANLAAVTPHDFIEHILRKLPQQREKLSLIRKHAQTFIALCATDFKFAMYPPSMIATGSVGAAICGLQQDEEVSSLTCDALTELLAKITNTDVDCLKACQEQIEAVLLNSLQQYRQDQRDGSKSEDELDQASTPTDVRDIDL
Substitution,normalised enrichment score
K6S,1.45
F9H,-0.0533
K6P,-0.0795
A3Q,0.276
S2T,3.29
T12W,3.32
V4H,0.588
S2E,0.969

# Series 3
# Structure (SMILES): CC(C)c1nn(-c2c(Cl)cccc2Cl)c2nc(Cc3ccc(OCCO)cc3)[nH]c(=O)c12
# Effect on: enzyme activity
# Mode: inhibitor
# Concentration: 0.5 µM
# Baseline: control
target,remaining activity
"FES (Homo sapiens, UniProt P07332)",97%
"PAK6 (Homo sapiens, UniProt Q9NQU5)",102%
"CLK2 (Homo sapiens, UniProt P49760)",44%
"PAK5 (Homo sapiens, UniProt Q9P286)",76.4%
"JAK2 (Homo sapiens, UniProt O60674)",98.3%
"PRKCQ (Homo sapiens, UniProt Q04759)",97.3%
"SIK2 (Homo sapiens, UniProt Q9H0K1)",116%
"PIM1 (Homo sapiens, UniProt P11309)",99%
"PRKCZ (Homo sapiens, UniProt Q05513)",96.9%
"CAMKK1 (Homo sapiens, UniProt Q8N5S9)",100%
"ERBB2 (Homo sapiens, UniProt P04626)",101%
"FLT1 (Homo sapiens, UniProt P17948)",87.2%
"PAK4 (Homo sapiens, UniProt O96013)",106%

# Series 4
# Target: CEBPB, bZIP domain (human)
# Method: DHFR protein complementation
# Matrix: yeast
# Notes: single substitutions, most at no-binding floor
# Baseline: wild-type JUN-FOS pair
# Direction: higher = stronger binding
# Starting sequence: JUN, bZIP domain (human); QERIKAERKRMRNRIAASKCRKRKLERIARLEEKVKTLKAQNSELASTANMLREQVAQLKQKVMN; partner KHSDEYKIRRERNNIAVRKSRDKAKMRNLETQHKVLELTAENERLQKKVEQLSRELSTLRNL
Substitution,binding fitness
I28C,-1.3 natural log
A46G,-1.42 natural log
T48G,-1.44 natural log
V56T,-1.48 natural log
T37H,-1.27 natural log
R30K,-1.26 natural log
K39T,-1.17 natural log
A29G,-1.31 natural log

# A few entries again (series 4):
Substitution,binding fitness
R30K,-1.26 natural log
A29G,-1.31 natural log
K39T,-1.17 natural log
A46G,-1.42 natural log
